Published values collected from several papers.
Every numbered part comes from another study and shows a few of its results, in no order. Changes are numbered by the printed parent chain.

Study 1
Target: Sal-like protein 4, full length isoform A (SALL4, Homo sapiens, UniProt Q9UJQ4, residues 1-1053)
Chain of UniProt Q9UJQ4 (whole entry, looked up): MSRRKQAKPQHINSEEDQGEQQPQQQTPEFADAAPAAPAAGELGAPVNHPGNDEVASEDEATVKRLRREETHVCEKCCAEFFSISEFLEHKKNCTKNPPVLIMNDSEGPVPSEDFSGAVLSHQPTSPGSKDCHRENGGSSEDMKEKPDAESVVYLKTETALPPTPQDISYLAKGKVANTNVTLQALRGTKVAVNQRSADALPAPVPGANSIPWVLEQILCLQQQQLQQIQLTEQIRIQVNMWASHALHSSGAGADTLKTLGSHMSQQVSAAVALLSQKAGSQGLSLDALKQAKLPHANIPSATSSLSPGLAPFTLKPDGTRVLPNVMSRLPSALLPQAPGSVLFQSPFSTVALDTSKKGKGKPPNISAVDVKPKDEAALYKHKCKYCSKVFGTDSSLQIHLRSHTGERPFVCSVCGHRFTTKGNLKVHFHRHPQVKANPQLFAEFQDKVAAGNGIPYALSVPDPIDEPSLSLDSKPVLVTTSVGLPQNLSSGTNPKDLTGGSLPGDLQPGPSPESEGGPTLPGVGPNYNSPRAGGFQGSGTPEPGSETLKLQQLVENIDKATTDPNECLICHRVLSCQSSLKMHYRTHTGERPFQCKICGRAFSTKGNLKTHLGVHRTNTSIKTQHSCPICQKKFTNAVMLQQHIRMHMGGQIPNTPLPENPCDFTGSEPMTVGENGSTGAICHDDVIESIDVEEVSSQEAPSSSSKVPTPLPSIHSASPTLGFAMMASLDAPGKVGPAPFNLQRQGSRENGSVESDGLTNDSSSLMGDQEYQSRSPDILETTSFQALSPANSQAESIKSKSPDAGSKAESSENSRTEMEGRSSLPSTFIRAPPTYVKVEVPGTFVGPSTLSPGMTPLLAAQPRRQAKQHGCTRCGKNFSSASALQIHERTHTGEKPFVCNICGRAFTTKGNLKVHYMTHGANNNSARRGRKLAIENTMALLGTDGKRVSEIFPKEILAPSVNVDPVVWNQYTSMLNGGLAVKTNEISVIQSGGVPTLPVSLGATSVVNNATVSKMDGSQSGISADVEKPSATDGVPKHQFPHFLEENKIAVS
Technique: universal PBM
Molecule type: double-stranded DNA, one strand shown
Sample: in vitro
Concentration: 600 nM
Notes: 8-mer, flanks averaged, mean of replicates
Reading: higher = stronger binding
Oligonucleotide | E-score
GCTGCGCA | -0.236
AATGCTGG | -0.0585
TAACAATA | 0.396
AAGCACCC | -0.271
GATAACTA | 0.318
AGGTCAAG | -0.113
AACTTTGG | 0.0257
GACGCTCA | -0.188
GATGGTAA | 0.0916
AAAAATAA | 0.397
AACCGTTC | -0.115
AAACAAAC | 0.185
GTCGACCA | -0.0926
AAGTATCG | 0.101
CTGCTCCA | -0.0931
ATATCAAC | 0.256

Study 2
Target: Histone acetyltransferase KAT6A, winged helix 2, GST fusion (KAT6A, Homo sapiens, UniProt Q92794, residues 85-181)
Technique: protein binding microarray
Molecule type: double-stranded DNA, one strand shown
Sample: in vitro
Concentration: not given
Notes: 8-mer, flanks averaged, mean of 2 arrays, mostly near background
Baseline: not given
Reading: higher = stronger binding
Residues (chain): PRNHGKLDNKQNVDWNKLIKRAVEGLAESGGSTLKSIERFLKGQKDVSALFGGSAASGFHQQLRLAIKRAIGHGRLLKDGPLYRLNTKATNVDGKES
Oligonucleotide | E-score
CTGTCGGC | 0.136
CAGCTCTC | 0.0901
AACCATAA | -0.0424
GCCGCCGA | 0.145
ACTTCAAT | 0.00829
CATGCGGA | 0.0799
AGAGGAGG | -0.0274
ACACCTAG | -0.123
CCAAACGC | -0.0114
TACTTCCA | -0.0358
GATTTGCA | 0.0371
AGCGTTGC | 0.061
AAGATCAA | 0.0364
GGTCCTTA | -0.00602
CATTTGAG | 0.0598
TAAATGAA | -0.032
AATCTCGG | 0.0847
CTGAGAGA | -0.0977
CCTATCGC | -0.0888
GTTAGCAA | 0.0355
AGCGCGCA | 0.193
GAGCTCGA | 0.177
TTTGCAAA | 0.156

Study 3
Target: RNA binding protein fox-1 homolog 2, RRM domain, GST-SBP tag (RBFOX2, Homo sapiens, UniProt O43251-10, residues 100-194)
Technique: RNA Bind-n-Seq
Molecule type: RNA
Sample: in vitro
Concentration: 365 nM
Notes: natural RNA segment, single round, ends assumed
Baseline: no-protein control
Reading: higher = stronger binding
Constant ends, left off below: GGGAGUUCUACAGUCCGACGAUC … UGGAAUUCUCGGGUGCCAA
Residues (chain): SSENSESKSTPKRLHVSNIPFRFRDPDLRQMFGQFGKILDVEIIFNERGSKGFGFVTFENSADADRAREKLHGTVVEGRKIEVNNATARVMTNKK
Oligonucleotide | RBNS enrichment (R)
UGGAUUUGGGAAUCAAACUCAAGCCCAUCUAAUCCAAGGGUAGGAAAUGUCUCUAAAACGUUGAUCAAUCUGAAGCUUACAGAUUGGAAACUGGGCCAGGUCAGCCCUGG | 0.256
AUUGAGCCCUCUGUCUUGCUCUCUCUGCCUUCCCUGUGUCUUUCUUCUCUUACCAGAGCAUCUGUUUGCAGAGGUAACAUUACCUUCCCCAGCCACAGGUAUGUGGAAUA | 1.04
AGACCAGCUGCUGCGACACUAAUGCUAAGCCUAUGGGGAAGCACUGUUGACCUGCUCAGGUGCACAUCUGUGAUGCCGACAGACUUGGUUCAGUUUUUAUAGUUGUGUUG | 0.292
CCACUGAUUGCCGCCUUGUUCUCCCUGACUGAUUGCUGCCUUGCUGGCUAGCCCAAGGGCCCUGCCAUGUUCUCCCCACAUCCGUAAAUAAACUUCCUUUCCCACACUGU | 3.2
GUGGUUGGGCGAGUGUCCUUGUUAAUUGAUACCUAAUUGGCCUUGGUUGGGAACAUAGCCAUGAGUGCCCCUCGUGGGUGGGGCGCCAGUCUGUCAUUGACCUCAUUGUG | 0.848
CAGCACUGACCCUUUCCUAGUUUCCCUAAUGCUAUCACUUAAAUAUUACAACAAAUGGGAGGUUCUGACAUCCUAGACCAUCUCACUGAUGCGCCACCAGGAAUCCAGUC | 0.463
CACACAGAGGGGAACCGAUUUUUUUUAUCCAAUGUGAAUUAUAAAUGAGAUAAUCCACAGUUAUUCAUUGUGGAGUUGUUGAGACUAUGAAAGACUCAUUGUCUUUGUAU | 0.512
AUAGGUACCCAAGAUAUUGUAUUUGGAGAAGUAGAUCGGUGGCAGGGGAGCAGCGUUUGAUCCCCCCUGCCUAUCAGCUUCUUCUGUGGAGCCUGUUCCUCACUGGAAAU | 0.325

Study 4
Target: CREBZF, bZIP domain (human)
Technique: DHFR protein complementation
Sample: yeast
Notes: single substitutions, most at no-binding floor
Baseline: wild-type JUN-FOS pair
Reading: higher = stronger binding
Starting sequence: JUN, bZIP domain (human); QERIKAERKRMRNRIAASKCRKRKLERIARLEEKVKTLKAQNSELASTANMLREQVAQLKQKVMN; partner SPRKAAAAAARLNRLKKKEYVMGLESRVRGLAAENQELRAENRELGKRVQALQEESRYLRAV
Change | binding fitness
K34H | -1.56 natural log
R30E | -1.42 natural log
R30C | -1.55 natural log
A40R | -1.44 natural log
R30V | -1.3 natural log
E32C | -1.53 natural log
Q55P | -1.49 natural log
L45V | -1.49 natural log
L31E | -1.56 natural log
A40D | -1.53 natural log
E54L | -1.38 natural log
M51P | -1.49 natural log
K34L | -1.45 natural log
A46T | -1.39 natural log
N42T | -1.52 natural log
L45N | -1.45 natural log
E44S | -1.53 natural log
S47F | -1.44 natural log
R53L | -1.61 natural log
E32R | -1.26 natural log
Q41D | -1.48 natural log
L31T | -1.57 natural log
T37W | -1.52 natural log
L52I | -1.48 natural log
E32H | -1.45 natural log
